Experimental data pooled from the literature.
Each numbered part is a random draw from the data of one study; scales do not carry over between parts.

Series 1
Target: RNA binding protein fox-1 homolog 2, RRM domain, GST-SBP tag (RBFOX2, Homo sapiens, UniProt O43251-10, residues 100-194)
Technique: RNA Bind-n-Seq
Molecule type: RNA
Matrix: in vitro
Concentration: 365 nM
Setting: natural RNA segment, single round, ends assumed
Baseline: no-protein control
Reading: higher = stronger binding
Quantity: RBNS enrichment (R)
All sequences stand within: GGGAGUUCUACAGUCCGACGAUC … UGGAAUUCUCGGGUGCCAA
Target sequence (chain): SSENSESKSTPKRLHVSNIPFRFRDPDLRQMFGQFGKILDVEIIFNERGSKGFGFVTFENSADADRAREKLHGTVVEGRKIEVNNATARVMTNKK
CAGAGGAAGGAGUCAGCAUCCUGAGCAUCCAGAAGAUUCAUGGAACCUGAAGUUGCCUCUGGAGCCUCCACUGAGGAACACGUACAGCAGAGUCCUUCAUCCCAUCUCCA: 0.434
UUACUCUUAGAACAGAUACAACUUUAAAGGGUGUCACAACCAAAGGUGGAGUGGAGUGUGGCAUGCAGGCUCUGUGGGGGCGCCAGUGCUCAGUUAGUUGUUGGUUAUUU: 2.12
CACAUUUUUAACUCCUCUCGCUCUGAUGGGACAUUUGUUACCCUUUUUUCAUAGUGAAAUUGUGUUUCAGGCUUAGUCUGACCUUUCUGGUUUCUUCAUUUUCUUCCAUU: 0.653
UUCUAACCAUUAUUUGGGAACAAAGAGAGUUUUCAUCUUUUUUCAGAUCAAAACCAUUCUGUAAAAUCUUUGUUGUUUAAUUAAAUGUGCCGUUAUUUACCCCUGAUGUU: 0.997
UGCCUCAGGGCCUGGCCCUCCUGCAUGCUAUGCCCGGGGCAGGCCUGACGGGCAGCUGAGGAUUGCAGAGCCUGUCUGCCUUACGGCCAGUCGGACAGACGUCCCGCCAC: 1.92
UUCCUUUAUUGUGCAUUUAUAUUUUCUGCUGAAUUCCGGUAGUUCCCUUUAAAGUCAUGUUGACUAAUGUUUUCCUCCUUGUUUGUAUUCAGAUUUCCAAAAUUUCACUC: 1.86
UUUCUGUGACUCUCUAAACACUUCAUCGAAACUAGAAGACUGAAUUAUGAGGAAACUAUUUGGAUUAGUGGCCAGAAACGAUGAAAUCUUAUAGAUCUUUUGACAGUUUC: 0.55
UACGUGGUUUUUAGGUAGAUGUUCCCAGGUGCCCUCUCUUGAGCUGGGUCUGAGGUUAUCCCUGUCCCCAUGCCCCCUCUGUGCCCCGAGCUCUGUCUCCCCACUCUUGC: 0.64
UACUUCUUGGUGACAUAAUAUAACCUUUGAAGUUAAUAUGAAGUGAUGUUUGCUCCAUAAACUCCACAGUCACUGUUUUCACAUUAAACAUGAAAGCAAAGCAAAACAAA: 0.288
CUUGCUUAAUUUCUACAGGCUGUCUUGUCUUUCAUAUGCUAACCACUAUCUUAAAAUGAAAGACAAGUGCUUUUCUUUUUCUUGCUGUUUUUUAAGAUAAUUUCACCCUG: 0.877
GAAUUGAUUUUUUGAGUUUUGUUUGUAAGAUGAUCACAGUCAUGUUACACUGAUCUAAAGGACAUAUAUAUAACCCUUUAAAAAAAAAAUCACUGCCUCAUUCUUAUUUC: 0.438
GUCAUGAAUGUUUCCCCUUUAUUUUUCCAAUAAAAAAAAGCAGUGGGAUGAAAAUUGCUUUGAUAUAUAGCAGGUAUAUUGAAGCUAUUCCAUAGCACUUAACUGUAGUG: 1.31

Series 2
Target: RING finger protein unkempt homolog, zinc fingers 1-6, GST-SBP tag (UNK, Homo sapiens, UniProt Q9C0B0, residues 30-357)
Technique: RNA Bind-n-Seq
Molecule type: RNA
Matrix: in vitro
Concentration: not given
Setting: RNA with constant flanks, human-mouse chimeric sites, ends assumed
Baseline: input RNA pool
Reading: higher = stronger binding
Quantity: bound/input enrichment
All sequences stand within: GGGAGUUCUACAGUCCGACGAUC … CAACAGAGGAUUGAGCAUCA
Construct (chain): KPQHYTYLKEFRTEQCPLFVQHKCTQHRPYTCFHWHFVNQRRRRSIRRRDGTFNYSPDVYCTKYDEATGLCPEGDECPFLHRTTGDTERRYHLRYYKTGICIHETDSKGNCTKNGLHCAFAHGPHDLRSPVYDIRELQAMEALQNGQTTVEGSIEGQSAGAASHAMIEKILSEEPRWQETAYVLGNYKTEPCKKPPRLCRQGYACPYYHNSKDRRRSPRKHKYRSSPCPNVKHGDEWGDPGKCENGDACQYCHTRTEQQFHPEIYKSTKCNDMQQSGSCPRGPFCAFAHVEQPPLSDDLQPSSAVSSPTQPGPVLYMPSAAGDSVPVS
GUAAUGGACGUCAACACUGCUCUACAAGAGGUGCUGAAGACUGCCCUCAUCCACGAUGGCCUAGCACGUGGCAUACGCGAAGCUGCCAAAGCCUUAGACAAGCGCCAAGCCCAUCUGUGU: 0.234 ratio
UUACUUUUGACUCCCUGGGUCAAGUUCCUGUGGGAAUCAUACAGGCAGUGUUUGGACCUUCUUCGAAACAAUUCUAGAGUAGAGCGCCUUUACCAUGAUAUCGCCCAGCAAGCUUUCAAA: 0.208 ratio
AACUUUGUGCAUCGGUUUCCCUUUGUAGCUGUUUCAAUUGGCUUCCUUGUAAAUAAAGAGAUGGAGUUUGGAAUUGUGUACAGCUGUGUGGAAGAUAAGAUGUACACCGGCAGGAAAGGG: 0.333 ratio
CUGUGUGUGCUGAAUAAAUGGCUUGUAAAGAAGUUUUUCCAAGCUGUAACCCAUGCUUCCCUUAGAGUUGCUGCAAAAUGUUCUUCCUAUUGAUGUUUUUAUUUGUUAACUGAAGGUCUC: 0.297 ratio
ACUCAGAGAUUAUAUUCCCAAAGUGCUGGGAGUAAAGGUGUGGCCACCACACCUAACUUGAUGGAUAUAUAUUUUUUUUAAUAUGAAUCUUCCUGUUCGUCCAGGGAGCAAGAACGGGUU: 0.637 ratio
UAAGUUAUUUUGUACAGCUUUGUAAAUUCUUAACAUUUUUAUAUUGCCAUGUUUAUUUUGUUUGGGUAAUUUGGUUCAUUAAGUACAAAACCAAAUAAAUGAACAUCUUUUUCAGUAAUU: 1.24 ratio
GCUCCUCCCCGCUCUGCAGCCUGGGGACACUGGGCUGGGACCAGAAUCUUAUUUUUUUUUAAAACUCUAUAUUUUUUUGUAUCCCGUGACAUUUCAUUUUUUUUAAAUAGUGUAUUUUUU: 18.2 ratio
GCAAGAGAUGAUGAGGCAGCUGCAGUUGCCCUUUCCUCUCUCGUUCAUGCUUUGGAUGAGUUAAACAUGGUCGCCAUCGUCCGAUAUGCUUAUGACAAAAGAUCUAAUCCUCAAGUUGGU: 0.116 ratio
GACAGUGAAGGCCCACUGUGUGAAUUGCUUUUUUUCUUCCUGACUGCAAUCUUCCAGGCGAUGGCUGAAGAAGAAGAGGAAGUAGCCAAAGAGCAGAUAACUGAUGCUGACACCAAAGAU: 0.0659 ratio
CUGAAAAACACAGAUAUCAAAGUUGUUGACUUUGGAAGUGCAACGUAUGAUGAUGAACAUCACAGUACUUUGGUGUCCACAAGGCACUACAGAGCUCCCGAGGUCAUUUUGGCUCUAGGU: 0.197 ratio
CUGGCCUGGCCCUCCCCAGGGGCCUCCUUUCGUAUAGUCACUGCUUCUGCAUCAGAUACUUUCAGCUGCAACUCCCUACUGGGUGGGGCACCCAUUUGAGGCAGGGUGUUUUGGUACCCU: 0.39 ratio

Series 3
Target: Prothrombin, mature alpha-thrombin (F2, Homo sapiens, UniProt P00734)
Technique: aptamer microarray, sandwich
Molecule type: DNA with 2'F-ANA
Matrix: in vitro
Concentration: 200 nM
Setting: whole 15-mer aptamer, many near background
Together with: Cy3 exosite-II aptamer, 400 nM
Reading: higher = stronger binding
Quantity: mean fluorescence intensity
Oligonucleotide: GGTTGGTGTGGTTGG
2'F-ANA at 5 6 10 11: 46.9 a.u.
2'F-ANA at 2 4 5 11 12 13: 84.9 a.u.
2'F-ANA at 3 10 11 12: 648 a.u.
2'F-ANA at 2 6 15: 461 a.u.
2'F-ANA at 1 2 4 5 9 10 13 14: 44 a.u.
2'F-ANA at 1 4 6 7 8 9 11 13 15: 81.7 a.u.
2'F-ANA at 2 3 6 9 10 12 13 15: 348 a.u.
2'F-ANA at 2 3 10 12: 689 a.u.
2'F-ANA at 1 3 5 7 8 12 14: 47.5 a.u.
2'F-ANA at 1 2 8 9 12 13: 309 a.u.
2'F-ANA at 3 5 9 10 11 12: 66 a.u.
2'F-ANA at 1 4 6 9 10 11 12 13 14 15: 48.2 a.u.
2'F-ANA at 1 2 3 4 5 7 10 11 12: 50.8 a.u.
2'F-ANA at 1 2 4 5 6 9 13 14 15: 46.8 a.u.
2'F-ANA at 1 3 4 7 9 10 13 14 15: 60.7 a.u.
2'F-ANA at 1 2 3 4 5 6 7 10 11: 58.4 a.u.
2'F-ANA at 3 4 6 7 9 10 12: 364 a.u.
2'F-ANA at 2 3 4 7 8 9 11 12 13: 616 a.u.
2'F-ANA at 3 4 5 9 11 12 13 14: 82.7 a.u.
2'F-ANA at 1 5 8 9 10 13: 46.1 a.u.
2'F-ANA at 2 4 5 9 10 13 15: 56.4 a.u.
2'F-ANA at 4 9 12 13 14: 85.8 a.u.
2'F-ANA at 2 3 4 10 11 13 14 15: 166 a.u.
2'F-ANA at 3 4 5 6 7 8 9 10 11 12 13 14: 92.1 a.u.
2'F-ANA at 1 2 9 15: 169 a.u.

Series 4
Target: Centromere-binding protein 1, full length, His-tagged (CBF1, Saccharomyces cerevisiae, UniProt P17106, residues 1-351)
UniProt P17106, sequence (whole entry, looked up): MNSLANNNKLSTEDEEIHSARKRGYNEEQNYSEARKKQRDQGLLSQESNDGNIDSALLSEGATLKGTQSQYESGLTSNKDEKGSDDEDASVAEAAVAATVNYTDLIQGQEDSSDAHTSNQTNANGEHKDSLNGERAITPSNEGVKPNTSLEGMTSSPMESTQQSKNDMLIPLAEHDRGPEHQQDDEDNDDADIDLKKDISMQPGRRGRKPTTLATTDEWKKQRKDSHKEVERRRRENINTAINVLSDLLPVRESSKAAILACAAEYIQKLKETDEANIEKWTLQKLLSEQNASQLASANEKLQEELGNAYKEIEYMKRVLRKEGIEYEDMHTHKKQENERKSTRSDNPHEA
Technique: competition protein-binding microarray
Molecule type: double-stranded DNA, one strand shown
Matrix: in vitro
Concentration: 2 µM
Setting: whole 60-bp probe, lowest competitor level
Together with: Pho4 competitor, 0.05 µM
Reading: higher = stronger binding
Quantity: fluorescence intensity
All sequences stand within: … GTCTTGATTCGCTTGACGCTGCTG
ATTTGACAGCATTTTCACGTGCAAACTGGAAGGAAT: 1270 a.u.
AAATTACTAAGTTGGAGAGTGGGTGACGCCGTATGA: 68.4 a.u.
CATACCCAACCTTCCCACGTGTTTTAAGATATTTGT: 945 a.u.
CTAACGAAGGTTTGAGGAGTGGGTGACAAGCCAAGT: 60.7 a.u.
ATTACCATTCTCCGTCACGTGCAAATAAAACCACTC: 9140 a.u.
TAAGTCATTAAGCGTCATGCCAGGTTTTCTTGGAAG: 73.3 a.u.
CCGCCCGATATATATCACATGTAGCTGTGTAATATG: 663 a.u.
TACTTTTGATGACTGTTTCTCAACTCCATGTCATTC: 85.1 a.u.
ATCATCATACATTTGCACGTGGCCGTTACATTTTTC: 1380 a.u.
CTAATTAAACCTTCACACATGCATAACTATAATGCA: 107 a.u.
AACGAGTCTGACGATGACGTGACTCGCTCCACTAAG: 129 a.u.
AGCAACCAAAGTACCCACGTGATTGTCTCCTGCCAA: 2950 a.u.
GTCTTGTCTCATTGTAACGTGGGTGTCCCCACTTCA: 81 a.u.
GTCTTGTCTCATTGTCACCGCACTTTCCCCACTTCA: 86.6 a.u.
TCTCTAGGTGGTTGGGCAAATCTATCAATATTCTTG: 63.8 a.u.
TGCGCAACAACTTGACTTGTGGGTGTATGTCTAGAA: 77.2 a.u.

For quick reference, copied from above (series 4):
ATCATCATACATTTGCACGTGGCCGTTACATTTTTC: 1380 a.u.
TGCGCAACAACTTGACTTGTGGGTGTATGTCTAGAA: 77.2 a.u.
GTCTTGTCTCATTGTAACGTGGGTGTCCCCACTTCA: 81 a.u.
ATTTGACAGCATTTTCACGTGCAAACTGGAAGGAAT: 1270 a.u.
ATTACCATTCTCCGTCACGTGCAAATAAAACCACTC: 9140 a.u.
TAAGTCATTAAGCGTCATGCCAGGTTTTCTTGGAAG: 73.3 a.u.
